Published values pooled from the literature.
Each line is one published result; not all experiments were run side by side.
Target: Beta-2 adrenergic receptor (ADRB2, Homo sapiens, UniProt P07550)
UniProt P07550, sequence (whole entry, looked up): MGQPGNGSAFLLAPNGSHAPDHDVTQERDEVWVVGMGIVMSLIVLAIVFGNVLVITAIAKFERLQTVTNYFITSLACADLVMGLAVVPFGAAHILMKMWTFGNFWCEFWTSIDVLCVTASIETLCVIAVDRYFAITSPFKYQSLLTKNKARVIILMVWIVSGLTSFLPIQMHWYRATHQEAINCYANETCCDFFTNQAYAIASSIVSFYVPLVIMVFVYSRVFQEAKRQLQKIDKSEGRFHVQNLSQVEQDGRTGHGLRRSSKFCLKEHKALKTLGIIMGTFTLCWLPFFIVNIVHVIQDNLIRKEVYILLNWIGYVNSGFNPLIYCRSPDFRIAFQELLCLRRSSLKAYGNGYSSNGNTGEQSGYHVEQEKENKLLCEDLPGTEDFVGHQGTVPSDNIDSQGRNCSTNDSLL

| SMILES | assay | system | conditions | scale | measurement | result |
| --- | --- | --- | --- | --- | --- | --- |
| O=C1c2sc(-c3ccc(N4CCC(CO)CC4)nc3F)nc2CCN1c1cccnc1 | ligand displacement, radioligand | – | 1 µM | – | inhibition | 8% |
| Cn1ccc2cc(-n3c(=O)[nH]c4sc5c(c4c3=O)CCCC5)ccc21 | cell-free assay, radioligand | – | 10 µM | – | inhibition | -1% |
| COc1ccc(C#CC2=C[C@H]3C[C@@]4(OC(=O)C=C24)[C@H]2CC[C@H](C(OC)OC)N32)cc1 | ligand displacement, radioligand | – | 10 µM | – | inhibition | -6% |
| Cc1[nH]nc2c1N=C(c1ccccc1Cl)c1cnc(N3CCOCC3)cc1N2 | cell-free assay | – | 10 µM | – | inhibition | -3% |
| COc1ccc(Nc2nc(NC3CCCCC3)c3ccccc3n2)cc1OC | β-arrestin2 recruitment, PathHunter and GloSensor | – | – | baseline: GloSensor IC50 over PathHunter IC50 | bias factor | > 4 fold |
| COc1ccc(C(=O)Nc2c(-c3cccs3)nc3ccccn23)cc1 | ligand displacement, radioligand | – | 10 µM | – | inhibition | < 50% |
| CC(C)Cn1c(SCC(=O)N2CCc3ccccc3C2)nc2cc(Cl)ccc2c1=O | ligand displacement, radioligand | – | 10 µM | – | inhibition | -13% |
| Clc1cccc(Nc2nc(NC3CCCCC3)c3ccccc3n2)c1 | β-arrestin2 recruitment, PathHunter and GloSensor | – | – | baseline: GloSensor IC50 over PathHunter IC50 | bias factor | > 8 fold |
| CNC(=O)C[C@H](Cc1ccc(C#N)cc1)NC(=O)c1cc(-c2ccc(CN[C@H](C)c3ccc(C)cc3)o2)ccc1Cl | agonist response, antagonist | 2 | 10 µM | – | inhibition | -27% |
| c1ccc2c(NC3CCCCC3)nc(NC3CCCCC3)nc2c1 | β-arrestin2 recruitment, PathHunter and GloSensor | – | – | baseline: GloSensor IC50 over PathHunter IC50 | bias factor | > 12 fold |
| CO[C@@H](C)c1c(NC(=O)Nc2cnc(-n3nccn3)c(C(F)(F)F)c2)cnc2sc(C)nc12 | ligand displacement, radioligand | – | 10 µM | – | inhibition | 17.3% |
| COCC(=O)N1CCc2cc(-c3csc(NC(=O)c4cc(OC)cc(OC)c4)n3)ccc21 | cell-free assay | – | 10 µM | – | inhibition | 4% |
| Cc1ccc2nc(Nc3ccc(F)c(F)c3)nc(NC3CCCCC3)c2c1 | β-arrestin2 recruitment, PathHunter and GloSensor | – | – | baseline: GloSensor IC50 over PathHunter IC50 | bias factor | 47 fold |

For quick reference, copied from above:
| SMILES | assay | system | conditions | scale | measurement | result |
| --- | --- | --- | --- | --- | --- | --- |
| COc1ccc(Nc2nc(NC3CCCCC3)c3ccccc3n2)cc1OC | β-arrestin2 recruitment, PathHunter and GloSensor | – | – | baseline: GloSensor IC50 over PathHunter IC50 | bias factor | > 4 fold |
| Cn1ccc2cc(-n3c(=O)[nH]c4sc5c(c4c3=O)CCCC5)ccc21 | cell-free assay, radioligand | – | 10 µM | – | inhibition | -1% |
